{"data": "Experimental data pooled from the literature", "note": "Protocols differ between the studies behind these lines. ± marks the error that the study gave."}
{"SMILES": "CCCC[C@H](NC(=O)CNC(=O)CNC(=O)CN1CCN(CC(=O)O)CCN(CC(=O)O)CCN(CC(=O)O)CC1)C(=O)N[C@H]1CC(=O)NCCCC[C@@H](C(N)=O)NC(=O)[C@H](Cc2c[nH]c3ccccc23)NC(=O)[C@H](CCCNC(=N)N)NC(=O)[C@@H](Cc2ccccc2)NC(=O)[C@H](Cc2c[nH]cn2)NC1=O [indium-111 labelled]", "test system": "C57 mouse, B16/F1 melanoma", "setting": "4 h", "how to read": "reference: tumour over liver", "endpoint": "tumour to liver uptake ratio", "result": 31}
{"SMILES": "N=C(N)NCCC[C@@H]1NC(=O)[C@H](CCCCNC(=O)CC[C@H](NC(=O)[C@H]2O[C@@H](CNC(=O)c3ccc(F)cc3)[C@H](O)[C@@H](O)[C@H]2O)C(=O)NCCCC[C@@H]2NC(=O)[C@@H](Cc3ccc(O)cc3)NC(=O)[C@H](CC(=O)O)NC(=O)CNC(=O)[C@H](CCCNC(=N)N)NC2=O)NC(=O)[C@@H](Cc2ccc(O)cc2)NC(=O)[C@H](CC(=O)O)NC(=O)CNC1=O [fluorine-18 labelled]", "test": "microPET imaging", "test system": "female athymic nude mouse, U-87 MG xenograft, U-87 MG tumour", "setting": "intravenous, 3.7 MBq, 2 h post-injection", "endpoint": "tumour uptake", "result": "1.75 ± 0.25 %ID/g"}
{"SMILES": "CC(C)C[C@H](NC(=O)C[C@H](O)[C@H](CC(C)C)NC(=O)[C@H](Cc1c[nH]cn1)NC(=O)CNC(=O)[C@@H](NC(=O)[C@H](C)NC(=O)[C@H](Cc1c[nH]c2ccccc12)NC(=O)[C@H](CCC(N)=O)NC(=O)[C@@H](Cc1ccccc1)NC(=O)CCNC(=O)CCNC(=O)CN1CCN(CC(=O)O)CCN(CC(=O)O)CCN(CC(=O)O)CC1)C(C)C)C(N)=O [lutetium-177 labelled]", "test system": "mouse, PC-3 xenograft", "setting": "intravenous", "endpoint": "tumour clearance half-life", "result": "20.8 ± 8.5 h"}
{"SMILES": "O=C(O)CCC(NP(=O)(O)OCCC[C@@H](NC(=O)CC[C@H](NC(=O)CCCCCNC(=O)c1ccc([18F])cc1)C(=O)O)C(=O)O)C(=O)O (some centres unmarked)", "test system": "mouse, CWR22Rv1 tumour xenograft, tumour", "setting": "dose not given, 4 h", "endpoint": "tumour uptake retention", "result": "2.33%"}
{"SMILES": "CC(C)[C@H](NC(=O)[C@@H]1CCCN1C(=O)[C@H](CCCNC(=N)N)NC(=O)[C@H](CS)NC(=O)[C@H](Cc1c[nH]c2ccccc12)NC(=O)[C@H](CCCNC(=N)N)NC(=O)[C@@H](Cc1ccccc1)NC(=O)[C@H](Cc1c[nH]cn1)NC(=O)[C@H](CCC(=O)O)NC(=O)[C@H](CS)NC(=O)[C@H](CS)NC(=O)CNC(=O)[C@@H]1CC(=O)N[C@@H](CCCNC(=N)N)C(=O)NCC(=O)N[C@@H](CC(=O)O)C(=O)N[C@H](Cc2ccc(O)cc2)C(=O)N1)C(N)=O [technetium-99m labelled]", "test system": "C57 mouse, female, B16/F1 melanoma", "setting": "intravenous, 0.037 MBq, 2 h", "how to read": "reference: tumour over blood", "endpoint": "tumour to tissue ratio", "result": 16.4}
{"SMILES": "CC(F)C(=O)NC[C@@H]1O[C@H](C(=O)NCCCC[C@@H]2NC(=O)[C@@H](Cc3ccccc3)NC(=O)[C@H](CC(=O)O)NC(=O)CNC(=O)[C@H](CCCNC(=N)N)NC2=O)[C@H](O)[C@H](O)[C@H]1O (some centres unmarked) [fluorine-18 labelled]", "test": "microPET imaging", "test system": "female athymic nude mouse, U-87 MG xenograft, U-87 MG tumour", "setting": "intravenous, 3.7 MBq, 2 h post-injection", "endpoint": "tumour uptake", "result": "0.9 ± 0.1 %ID/g"}
{"SMILES": "CCCC[C@H](NC(=O)CNC(=O)CNC(=O)CN1CCN(CC(=O)O)CCN(CC(=O)O)CCN(CC(=O)O)CC1)C(=O)N[C@H]1CC(=O)NCCCC[C@@H](C(N)=O)NC(=O)[C@H](Cc2c[nH]c3ccccc23)NC(=O)[C@H](CCCNC(=N)N)NC(=O)[C@@H](Cc2ccccc2)NC(=O)[C@H](Cc2c[nH]cn2)NC1=O [gallium-67 labelled]", "test system": "female C57 mouse B16/F1 melanoma", "setting": "intravenous, 0.037 MBq, 0.5 h", "endpoint": "tumour to kidney ratio", "result": 1.64}
{"SMILES": "CC(F)C(=O)NC[C@@H]1O[C@H](C(=O)N[C@@H](CCC(=O)NCCCC[C@@H]2NC(=O)[C@@H](Cc3ccc(O)cc3)NC(=O)[C@H](CC(=O)O)NC(=O)CNC(=O)[C@H](CCCNC(=N)N)NC2=O)C(=O)NCCCC[C@@H]2NC(=O)[C@@H](Cc3ccc(O)cc3)NC(=O)[C@H](CC(=O)O)NC(=O)CNC(=O)[C@H](CCCNC(=N)N)NC2=O)[C@H](O)[C@H](O)[C@H]1O (some centres unmarked) [fluorine-18 labelled]", "test system": "female athymic nude mouse, U-87 MG xenograft, U-87 MG tumour", "setting": "dose not given, 1 h", "endpoint": "tumour uptake", "result": "2.1 ± 0.2 %ID/g"}
{"SMILES": "CSCC[C@H](NC(=O)[C@H](Cc1ccc(O)cc1)NC(=O)[C@@H]1CSSC[C@H](NC(=O)[C@H](Cc2ccc(O)cc2)NC(=O)[C@H](CCCCN)NC(=O)[C@H](CC(C)C)NC(=O)[C@@H](NC(=O)[C@H](Cc2ccccc2)NC(=O)[C@H](Cc2ccccc2)NC(=O)CCCCCOc2cc(C(=O)c3ccc4ccc5cccc6ccc3c4c56)cc(C(=O)c3ccc4ccc5cccc6ccc3c4c56)c2)C(C)C)C(=O)N[C@@H](CC(=O)O)C(=O)NCC(=O)N[C@@H](Cc2ccccc2)C(=O)N[C@@H](Cc2ccc(O)cc2)C(=O)N[C@@H](C)C(=O)N1)C(=O)N[C@@H](CC(=O)O)C(=O)N[C@H](C(N)=O)C(C)C", "test": "ex vivo fluorescence imaging", "test system": "Balb/c nude mouse, MCF7/C6 tumour", "setting": "iv, 8 mg/kg", "endpoint": "tumour fluorescence persistence", "result": "> 3 days"}
{"SMILES": "CC(F)C(=O)NC[C@@H]1O[C@H](C(=O)NCCCC[C@@H]2NC(=O)[C@@H](Cc3ccc(O)cc3)NC(=O)[C@H](CC(=O)O)NC(=O)CNC(=O)[C@H](CCCNC(=N)N)NC2=O)[C@H](O)[C@H](O)[C@H]1O (some centres unmarked) [fluorine-18 labelled]", "test": "microPET imaging", "test system": "female athymic nude mouse, U-87 MG xenograft, U-87 MG tumour", "setting": "intravenous, 3.7 MBq, 1 h post-injection", "endpoint": "tumour uptake", "result": "1.47 ± 0.23 %ID/g"}
{"SMILES": "CCCC[C@H](NC(=O)[C@H](CCC(=O)O)NC(=O)CNC(=O)CN1CCN(CC(=O)O)CCN(CC(=O)O)CCN(CC(=O)O)CC1)C(=O)N[C@H]1CC(=O)NCCCC[C@@H](C(N)=O)NC(=O)[C@H](Cc2c[nH]c3ccccc23)NC(=O)[C@H](CCCNC(=N)N)NC(=O)[C@@H](Cc2ccccc2)NC(=O)[C@H](Cc2c[nH]cn2)NC1=O [indium-111 labelled]", "test system": "C57 mouse, B16/F1 melanoma", "setting": "0.5 h", "how to read": "reference: tumour over skin", "endpoint": "tumour to skin uptake ratio", "result": 7.21}
{"SMILES": "CC[C@H](C)[C@H](NC(=O)[C@H](C)NC(=O)[C@H](CC(C)C)NC(=O)[C@H](Cc1ccc(O)c(I)c1)NC(C)=O)C(=O)NCCCCCC(=O)N1CCC[C@H]1C(=O)N[C@@H](C)C(=O)N[C@@H](CC(=O)O)C(=O)N[C@@H](CCC(=O)O)C(=O)N[C@H](C(=O)N[C@@H](CC(=O)O)C(=O)NCC(=O)N[C@@H](CCCNC(=N)N)C(=O)N[C@@H](CCCNC(=N)N)C(=O)N[C@@H](CCCNC(=N)N)C(=O)N[C@@H](CCCN)C(=O)N[C@@H](CCCNC(=N)N)C(=O)N[C@@H](CCCNC(=N)N)C(=O)N[C@@H](CCCCN)C(=O)N[C@@H](CCCCN)C(=O)N[C@@H](CCCNC(=N)N)C(=O)N[C@@H](CCCCNC(=O)CN1CCN(CC(=O)O)CCN(CC(=O)O)CCN(CC(=O)O)CC1)C(N)=O)C(C)C [iodine-125 labelled]", "test system": "female BALB/c mouse, orthotopic 4T1 tumour, tumour over muscle", "setting": "intravenous, 0.185 MBq, 1 h", "endpoint": "tumour to tissue ratio", "result": "2.2 ± 0.1"}
{"SMILES": "N=C(N)NCCC[C@@H]1NC(=O)[C@H](CCCCNC(=O)CC[C@H](NC(=O)CC[C@H](NC(=O)CN2CCN(CC(=O)O)CCN(CC(=O)O)CCN(CC(=O)O)CC2)C(=O)N[C@@H](CCC(=O)NCCCC[C@@H]2NC(=O)[C@@H](Cc3ccccc3)NC(=O)[C@H](CC(=O)O)NC(=O)CNC(=O)[C@H](CCCNC(=N)N)NC2=O)C(=O)NCCCC[C@@H]2NC(=O)[C@@H](Cc3ccccc3)NC(=O)[C@H](CC(=O)O)NC(=O)CNC(=O)[C@H](CCCNC(=N)N)NC2=O)C(=O)NCCCC[C@@H]2NC(=O)[C@@H](Cc3ccccc3)NC(=O)[C@H](CC(=O)O)NC(=O)CNC(=O)[C@H](CCCNC(=N)N)NC2=O)NC(=O)[C@@H](Cc2ccccc2)NC(=O)[C@H](CC(=O)O)NC(=O)CNC1=O [indium-111 labelled]", "test system": "female nude BALB/c mouse, SK-RC-52 xenograft, tumour", "setting": "intravenous, 2 h", "endpoint": "tumour uptake", "result": "7.32 ± 2.45 %ID/g"}
{"SMILES": "CCCC[C@H](NC(=O)CN1CCC(NC(=O)CN2CCN(CC(=O)O)CCN(CC(=O)O)CCN(CC(=O)O)CC2)CC1)C(=O)N[C@H]1CC(=O)NCCCC[C@@H](C(N)=O)NC(=O)[C@H](Cc2c[nH]c3ccccc23)NC(=O)[C@H](CCCNC(=N)N)NC(=O)[C@@H](Cc2ccccc2)NC(=O)[C@H](Cc2c[nH]cn2)NC1=O [gallium-68 labelled]", "test": "biodistribution", "test system": "C57BL/6J mouse male tumour-bearing", "setting": "1 h post injection, unblocked", "how to read": "reference: tumour over blood", "endpoint": "tumour to blood ratio", "result": "21.5 ± 14.6"}
{"SMILES": "Cc1nc(NC(=O)N2CCC[C@H]2C(N)=O)sc1-c1csc(C(C)(C)C)n1", "test system": "mouse SK-OV-3 xenograft, tumour", "setting": "intraperitoneal, 100 mg/kg single, 6 h", "endpoint": "tumour concentration", "result": "16 ± 1.3 µM"}
{"SMILES": "CC(F)C(=O)NCCOCCOCCOCC(=O)N[C@@H](CCC(=O)NCCCC[C@@H]1NC(=O)[C@@H](Cc2ccc(O)cc2)NC(=O)[C@H](CC(=O)O)NC(=O)CNC(=O)[C@H](CCCNC(=N)N)NC1=O)C(=O)NCCCC[C@@H]1NC(=O)[C@@H](Cc2ccc(O)cc2)NC(=O)[C@H](CC(=O)O)NC(=O)CNC(=O)[C@H](CCCNC(=N)N)NC1=O (some centres unmarked) [fluorine-18 labelled]", "test": "microPET imaging", "test system": "female athymic nude mouse, U-87 MG xenograft, U-87 MG tumour", "setting": "intravenous, 3.7 MBq, 1 h post-injection", "endpoint": "tumour uptake", "result": "2.8 ± 0.46 %ID/g"}
{"SMILES": "CN1C(=O)[C@@H](Cc2ccc(O)cc2)NC(=O)CNC(=O)[C@H](Cc2ccc3ccccc3c2)NC(=O)[C@H](CCCNC(=N)N)NC(=O)[C@H]1CCCNC(=O)c1ccc(CNC(=O)CN2CCN(CC(=O)O)CCN(CC(=O)O)CCN(CC(=O)O)CC2)cc1 [gallium-68 labelled]", "test system": "mouse, CB-17 SCID, female, Daudi xenograft, tumour", "setting": "intravenous, 0.05 nmol, 90 min", "endpoint": "tumour uptake", "result": "16.2 %ID/g"}
{"note": "Repeated from above:"}
{"SMILES": "CC(F)C(=O)NCCOCCOCCOCC(=O)N[C@@H](CCC(=O)NCCCC[C@@H]1NC(=O)[C@@H](Cc2ccc(O)cc2)NC(=O)[C@H](CC(=O)O)NC(=O)CNC(=O)[C@H](CCCNC(=N)N)NC1=O)C(=O)NCCCC[C@@H]1NC(=O)[C@@H](Cc2ccc(O)cc2)NC(=O)[C@H](CC(=O)O)NC(=O)CNC(=O)[C@H](CCCNC(=N)N)NC1=O (some centres unmarked) [fluorine-18 labelled]", "test": "microPET imaging", "test system": "female athymic nude mouse, U-87 MG xenograft, U-87 MG tumour", "setting": "intravenous, 3.7 MBq, 1 h post-injection", "endpoint": "tumour uptake", "result": "2.8 ± 0.46 %ID/g"}
{"SMILES": "CC[C@H](C)[C@H](NC(=O)[C@H](C)NC(=O)[C@H](CC(C)C)NC(=O)[C@H](Cc1ccc(O)c(I)c1)NC(C)=O)C(=O)NCCCCCC(=O)N1CCC[C@H]1C(=O)N[C@@H](C)C(=O)N[C@@H](CC(=O)O)C(=O)N[C@@H](CCC(=O)O)C(=O)N[C@H](C(=O)N[C@@H](CC(=O)O)C(=O)NCC(=O)N[C@@H](CCCNC(=N)N)C(=O)N[C@@H](CCCNC(=N)N)C(=O)N[C@@H](CCCNC(=N)N)C(=O)N[C@@H](CCCN)C(=O)N[C@@H](CCCNC(=N)N)C(=O)N[C@@H](CCCNC(=N)N)C(=O)N[C@@H](CCCCN)C(=O)N[C@@H](CCCCN)C(=O)N[C@@H](CCCNC(=N)N)C(=O)N[C@@H](CCCCNC(=O)CN1CCN(CC(=O)O)CCN(CC(=O)O)CCN(CC(=O)O)CC1)C(N)=O)C(C)C [iodine-125 labelled]", "test system": "female BALB/c mouse, orthotopic 4T1 tumour, tumour over muscle", "setting": "intravenous, 0.185 MBq, 1 h", "endpoint": "tumour to tissue ratio", "result": "2.2 ± 0.1"}
